Experimental data pooled from the literature.
Protocols differ between the studies behind these lines. ≈ marks a conversion by molar mass, not a printed value.
Organism: Mycolicibacterium smegmatis

The MIC90 of `CCc1nc2ccc(Cl)cn2c1C(=O)NC/C=C(\C)CC/C=C(\C)CCC=C(C)C` is reported as greater than 100 µM.
With `Cc1ccc2nc(C)c(C(=O)C(=O)NCc3ccccc3)n2c1` the MIC was greater than 128 µM (microbial growth, broth dilution).
The MIC of `CCc1nc2cc(Br)ccn2c1C(=O)NCc1ccc2oc(-c3ccc(OC(F)(F)F)cc3)nc2c1` is reported as greater than 25 µM (72 h).
`COc1ccc(-c2[nH]c3ccccc3c2C[C@H]2NC(=O)[C@@H](CO)NC(=O)[C@@H](C(C)C)NC(=O)[C@H](Cc3ccccc3)NC(=O)[C@@H](C(C)C)NC(=O)[C@@H](C)NC(=O)[C@H](CO)NC2=O)c(OC)c1` has an MIC90 of greater than 100 µM.
With `CN[C@@H]1[C@H](O)[C@H](NC)[C@H]2O[C@]3(O)[C@H](O[C@@H]2[C@H]1O)O[C@H](C)C[C@H]3NC(=O)Cc1ccccn1` the MIC was 25 µg/mL.
The MIC90 of `CC(C)[C@H]1NC(=O)[C@H](Cc2ccccc2)NC(=O)[C@@H](C(C)C)NC(=O)[C@@H](C)NC(=O)[C@H](CO)NC(=O)[C@@H](Cc2c(-c3ccc(C4CCCCC4)cc3)[nH]c3ccccc23)NC(=O)[C@@H](CO)NC1=O` is reported as greater than 100 µM.
`Cc1ccc2nc(C)c(C(=O)C(=O)N(C)C)n2c1` gave an MIC of greater than 128 µM (microbial growth, broth dilution).
`Cc1ccn2c(C(=O)NCc3ccccc3)c(C)nc2c1` gave an MIC90 of greater than 100 µM.
For `Cc1ccc2nc(C)c(CC(=O)NCc3ccc(N(C)C)cc3)n2c1`, the inhibition zone was 20 mm (microbial growth; MC2155; 2 mM, 20 h).
For `Cc1nc2ccc(C(F)(F)F)cn2c1C(=O)NCc1ccc2oc(-c3ccc(Cl)cc3)nc2c1`, the MIC90 was greater than 100 µM.
For `CC(C)[C@H]1NC(=O)[C@H](Cc2ccc(O)cc2)NC(=O)[C@@H](C(C)C)NC(=O)[C@@H](C)NC(=O)[C@H](CO)NC(=O)[C@@H](Cc2c(-c3ccc(-c4ccc5ccccc5c4)cc3)[nH]c3ccccc23)NC(=O)[C@@H](CO)NC1=O`, the MIC90 was 100 µM (≈ 99.5 µg/mL).
`Cc1ccc2nc(C)c(C(=O)NCc3ccccc3)n2c1` has an inhibition zone of 26 mm (microbial growth; MC2155; 2 mM).
With `Cc1nc2ccc(Br)cn2c1C(=O)NCc1ccc2oc(-c3ccc(Cl)cc3)nc2c1` the MIC90 was greater than 100 µM.
The inhibition zone of `Cc1ccc(-c2nc3ccc(C)cn3c2C(=O)C(=O)NCc2ccc(N(C)C)cc2)cc1` is reported as 0 mm (microbial growth; MC2155; 2 mM, 20 h).
`Cc1nc2cc(C(F)(F)F)ccn2c1C(=O)NCc1ccc2oc(-c3ccc(Cl)cc3)nc2c1` has an MIC of greater than 100 µM (72 h).
The MIC90 of `CC(C)[C@H]1NC(=O)[C@H](Cc2ccccc2)NC(=O)[C@@H](C(C)C)NC(=O)[C@@H](C)NC(=O)[C@H](CO)NC(=O)[C@@H](Cc2c(-c3ccc(-c4ccc5ccccc5c4)cc3)[nH]c3ccccc23)NC(=O)[C@@H](C)NC1=O` is reported as 100 µM (≈ 96.3 µg/mL).
`CCc1nc2ccc(C(F)(F)F)cn2c1C(=O)NCc1ccc2oc(-c3ccc(Cl)cc3)nc2c1` gave an MIC90 of greater than 100 µM.
`CC(C)[C@H]1NC(=O)[C@H](Cc2ccccc2)NC(=O)[C@@H](C(C)C)NC(=O)[C@@H](C)NC(=O)[C@H](C)NC(=O)[C@@H](Cc2c(-c3ccc(-c4ccc5ccccc5c4)cc3)[nH]c3ccccc23)NC(=O)[C@@H](C)NC1=O` gave an MIC90 of 100 µM (≈ 94.7 µg/mL).
`CCc1ccn2c(C(=O)NCc3ccc(C)cc3)c(C)nc2c1` has an inhibition zone of 0 mm (microbial growth; MC2155; 2 mM).
`CC(C)[C@H]1NC(=O)[C@H](Cc2ccccc2)NC(=O)[C@@H](C(C)C)NC(=O)[C@@H](C)NC(=O)[C@H](C)NC(=O)[C@@H](Cc2c(-c3ccc(-c4ccc(-c5ccccc5)cc4)cc3)[nH]c3ccccc23)NC(=O)[C@@H](CO)NC1=O` has an MIC90 of greater than 100 µM.
For `Cc1ccc(-c2nc3ccc(C)cn3c2CC(=O)NCc2ccc(N(C)C)cc2)cc1`, the MIC was greater than 50 µM (microbial growth, broth dilution).
`CC(C)[C@H]1NC(=O)[C@H](Cc2ccccc2)NC(=O)[C@@H](C(C)C)NC(=O)[C@@H](C)NC(=O)[C@H](CO)NC(=O)[C@@H](Cc2c(-c3ccc(-c4ccccc4)cc3)[nH]c3ccccc23)NC(=O)[C@@H](CO)NC1=O` gave an MIC90 of greater than 100 µM.
`Cc1ccc(CNC(=O)Cc2c(C)nc3ccc(C)cn23)cc1` has an inhibition zone of 20 mm (microbial growth; MC2155; 2 mM, 20 h).
`Cc1cc(=O)oc2cc(OCCCCn3cc(COc4ccc(N5C(N)=NC(N)=NC56CCCCC6)cc4)nn3)ccc12` has an MIC50 of 0.7 µM (≈ 0.409 µg/mL) (microbial growth; ATCC700084 MC2155).
`CC(C)[C@H]1NC(=O)CNC(=O)[C@H](CO)NC(=O)[C@@H](Cc2c(-c3ccc(-c4ccc5ccccc5c4)cc3)[nH]c3ccccc23)NC(=O)[C@@H](CO)NC(=O)[C@@H](C(C)C)NC(=O)[C@H](Cc2ccccc2)NC1=O` gave an MIC90 of greater than 100 µM.

Some of these lines once more:
The MIC90 of `CC(C)[C@H]1NC(=O)[C@H](Cc2ccccc2)NC(=O)[C@@H](C(C)C)NC(=O)[C@@H](C)NC(=O)[C@H](CO)NC(=O)[C@@H](Cc2c(-c3ccc(-c4ccc5ccccc5c4)cc3)[nH]c3ccccc23)NC(=O)[C@@H](C)NC1=O` is reported as 100 µM (≈ 96.3 µg/mL).
`CCc1nc2ccc(C(F)(F)F)cn2c1C(=O)NCc1ccc2oc(-c3ccc(Cl)cc3)nc2c1` gave an MIC90 of greater than 100 µM.
`CC(C)[C@H]1NC(=O)[C@H](Cc2ccccc2)NC(=O)[C@@H](C(C)C)NC(=O)[C@@H](C)NC(=O)[C@H](C)NC(=O)[C@@H](Cc2c(-c3ccc(-c4ccc5ccccc5c4)cc3)[nH]c3ccccc23)NC(=O)[C@@H](C)NC1=O` gave an MIC90 of 100 µM (≈ 94.7 µg/mL).
